# Experimental data pooled from the literature.
# Numbered parts are unrelated; each lists some results of a single study. Substitutions count along the parent as printed.

# Set 1
# Target: BIRC6 UBC core domain (UniProt Q9NR09)
# Method: yeast two-hybrid
# Medium: yeast
# Notes: mostly zero background
# Relative to: not given
# Direction: higher = stronger interaction
# B1: TRIM55 RING domain (UniProt Q9BYV6); chain TMDNLEKQLICPICLEMFTKPVVILPCQHNLCRKCASDIFQASNPYLPTRGGTTMASGGRFRCPSCRHEVVLDRHG
# B2: TRIM52 RING domain (UniProt Q96A61); chain PMQTLQEEAVCAICLDYFKDPVSISCGHNFCRGCVTQLWSKEDEEDQNEEEDEWEEEEDEEAV
# B3: PHF7 RING domain (UniProt Q9BWX1); chain IQHGHVGEESCILCCEDLSQQSVENIQSPCCSQAIYHRKCIQKYAHTSAKHFFKCPQCNNRKEFPQEML
# B4: RNF112 RING domain (UniProt Q9ULX5); chain QPMAPRELPTCSICLERLRDPISLDCGHDFCIRCFSTHRLPGCEPPCCPECRKICKQKRGLR
# B5: PEX2 RING domain (UniProt P28328); chain DNTLATSGKECALCGEWPTMPHTIGCEHIFCYFCAKSSFLFDVYFTCPKCGTEVHSLQPLK
# B6: TRIM38 RING domain (UniProt O00635); chain STKKMMEEATCSICLSLMTNPVSINCGHSYCHLCITDFFKNPSQKQLRQETFCCPQCRAPFHMDSLRP
# B7: NSMCE1 RING domain (UniProt Q8WV22); chain RETYPDAVKICNICHSLLIQGQSCETCGIRMHLPCVAKYFQSNAEPRCPHCNDYWPHEIPKV
# B8: UBE4A RING domain (UniProt Q14139); chain LQQQEEETYADACDEFLDPIMSTLMCDPVVLPSSRVTVDRSTIARHLLSDQTDPFNRSPLTMDQIRPNTELKEKIQRWLAERKQQKEQLE
# B9: RNF175 RING domain (UniProt Q8N4F7); chain LPTRSLSDNICAVCGQKIIVELDEEGLIENTYQLSCNHVFHEFCIRGWCIVGKKQTCPYCKEKVDLKRMIS
# B10: RNF43 RING domain (UniProt Q68DV7); chain SGSSCSSAPVCAICLEEFSEGQELRVISCLHEFHRNCVDPWLHQHRTCPLCMFNITEGDSFS
# B11: RFPL2 RING domain (UniProt O75678); chain MAALFQEASSCPVCSDYLEKPMSLECGCAVCLKCINSLQKEPHGEDLLCCCSSMVSRKNKIRR
# B12: TRIM3 RING domain (UniProt O75382); chain VQPMDKQFLVCSICLDRYQCPKVLPCLHTFCERCLQNYIPAQSLTLSCPVCRQTSILPEQGV
# B13: RNF32 RING domain (UniProt Q9H0A6); chain SLLQGDSVQPCPICKEEFELRPQVLLSCSHVFHKACLQAFEKFTNKKTCPLCRKNQYQTRVIH
# Residues (chain): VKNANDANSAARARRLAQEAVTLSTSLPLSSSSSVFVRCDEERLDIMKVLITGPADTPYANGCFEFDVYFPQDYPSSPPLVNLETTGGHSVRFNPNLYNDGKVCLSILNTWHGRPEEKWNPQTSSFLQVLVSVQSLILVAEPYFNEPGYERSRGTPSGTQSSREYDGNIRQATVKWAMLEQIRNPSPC
Sequence,lacZ reporter activity
B1 (TRIM55 RING domain),0
LKQVSIRENCCSLCCDEVADTQLKPCGHSDLCMDCALQLETCPLCRKEIVSRIRQI (RSPRY1 RING domain (UniProt Q96DX4)),0
B2 (TRIM52 RING domain),0
B3 (PHF7 RING domain),0
B4 (RNF112 RING domain),0
B5 (PEX2 RING domain),0
B6 (TRIM38 RING domain),0
B7 (NSMCE1 RING domain),0
B8 (UBE4A RING domain),0
B9 (RNF175 RING domain),0
B10 (RNF43 RING domain),0
FLKKLEQSFMCVCCQELVYQPVTTECFHNVCKDCLQRSFKAQVFSCPACRHDLGQNYIMI (UHRF2 RING domain (UniProt Q96PU4)),0
B11 (RFPL2 RING domain),0
B12 (TRIM3 RING domain),0
KRQCSDVDDICSICQAEFQKPILLICQHIFCEECMTLWFNREKTCPLCRTVISDHINKW (RNFT1 RING domain (UniProt Q5M7Z0)),0
B13 (RNF32 RING domain),0

# Set 2
# Target: Fragile X messenger ribonucleoprotein 1, C-terminal low-complexity region (Fmr1, Mus musculus, UniProt P35922)
# Method: RNA Bind-n-Seq
# Form: RNA
# Medium: in vitro
# Concentration: 200 nM
# Notes: whole 134-nt RNA, ends assumed
# Together with: 150 mM KCl
# Relative to: input library
# Direction: higher = stronger binding
# All sequences stand within: GGGAGUUCUACAGUCCGACGAUC … UGGAAUUCUCGGGUGUCAAGG
Strand,log2 enrichment
ACCAUGCAGGUGGGCAUCUUUGGGAAGUGGGGCAAGGGGGGGAUAGGGAGGGCGGUAACACUUUGGGAACAGGUGGUCCCAGGUCGUUUC,0.866
UGGGAGGUGGAUUUUGUUUAUUUUUUUAGCUCAUUUCCAGGGGUGGGAAUUUUUUUUUAAUAUGUGUCAUGAAUAAACUUGUUUUUGAAA,0.239
UCCUGUGCUACACAUCGUAUGUACCGAAUCGGGAAAAAAGGGAAAAAAGGAAAAAAGGGAAAGUAUUAUGUUACGCCGUUCGGAUCUGCA,-0.116
AAGUCCUGUGCUACACAUCGUAUGUACCGAAUCGGAAAAAGGAAAAAGGGAAAAAGGAAAGUAUUAUGUUACGCCGUUCGGAUCUGCACU,-0.703
GCAGGAAGUAAAAACAAAUGGAAAUGCUUCGGAUAGAGGCAGGGGUGGGGGUUGCUAAGGAAAGGGUGGGAUGGGAGUGGGUAAAGAGUU,0.697
ACCAUGCAGGUGGGCAUCUUUGGGAAGUGGGGCAAGGGGGGGAUAGGGAGGGGGGUAACACUUUGGGAACAGGUGGACCCAGGUCGUUUC,0.47
UGGCCCUUCCCCUGGAGCCAUGCUGGGCCCUAGCCCGGGUCCCUCGCCGGGCUCCGCCCACAGCAUGAUGGGGCCCAGCCCAGGGCCGCC,0.304
UCCUCAAGUCCUGUGCUACACAUCGUAUGUACCGAAUCGGGGCGGCGGCGGAAAGUAUUAUGUUACGCCGUUCGGAUCUGCACUUCCAGC,-0.121
CACAGACAACACGCACCCACACAGACACAGAAAAAAGGGGUUGGGAUGGGGACAGGGUGCACAGCAGGGCGGGGUAGGACCCCAGCCCCU,1.22
CACAGACAACACGCACCCACACAGACACAGAGGGAAGGGGUUGGGAUGGGGACAGGGUGCACAGCAGGGCGGGGUAGGACCCCAACCCCU,1.16

# Set 3
# Target: ABI1, truncated, D143A, DHFR fusion (Arabidopsis thaliana, UniProt P49597)
# Method: DHFR PCA, dose-response
# Medium: yeast
# Notes: Hill fit, not affinity, not high confidence
# Together with: (+)-ABA, dose series
# Direction: lower = more sensitive
# Starting sequence: PYL1, truncated, DHFR fusion (Arabidopsis thaliana, UniProt Q8VZS8); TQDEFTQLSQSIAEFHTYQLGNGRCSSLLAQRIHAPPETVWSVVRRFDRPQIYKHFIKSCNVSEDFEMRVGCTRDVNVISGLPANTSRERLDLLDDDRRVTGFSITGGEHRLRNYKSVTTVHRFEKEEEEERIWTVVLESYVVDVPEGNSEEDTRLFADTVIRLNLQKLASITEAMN
Variant,ABA EC50 [µM]
V161L,88
R74N,2.95
E89S,1730
V100D,787
V121Q,8.86
V161D,2.68
V76G,8.72
H16W,850
L169D,0.0549
V143P,3.02
Q2W,19.8
V40K,0.168
F103D,14
V143E,1.99
N149E,226
I33Q,3.44
D92K,276
G102D,0.835
L166R,0.113
P83Y,358

# Set 4
# Target: Sal-like protein 4, full length isoform B (SALL4, Homo sapiens, UniProt Q9UJQ4-2, residues 1-616)
# Method: universal PBM
# Form: double-stranded DNA, one strand shown
# Medium: in vitro
# Concentration: not given
# Notes: 8-mer, flanks averaged, mean of replicates
# Direction: higher = stronger binding
Strand,E-score
CCAGATAA,0.18
GGGCGCTA,-0.302
TGCAGACA,0.179
AAACTAAC,0.104
GCTTGCAA,0.143
GGTAACGA,0.0199
ACCAGTTC,-0.158
GCTCTCAA,-0.0771
CCGCAGCG,-0.273
CTGCAGAA,0.0614
AACCCGCA,-0.102
AGTATCCC,-0.224
GTTGATTA,0.191
CTCCTGCC,-0.138
CTGTTAAC,0.115
AGCGTATG,-0.0344
CGCTTCCC,-0.133

# Repeated from above (set 2):
Strand,log2 enrichment
UCCUGUGCUACACAUCGUAUGUACCGAAUCGGGAAAAAAGGGAAAAAAGGAAAAAAGGGAAAGUAUUAUGUUACGCCGUUCGGAUCUGCA,-0.116
CACAGACAACACGCACCCACACAGACACAGAAAAAAGGGGUUGGGAUGGGGACAGGGUGCACAGCAGGGCGGGGUAGGACCCCAGCCCCU,1.22
CACAGACAACACGCACCCACACAGACACAGAGGGAAGGGGUUGGGAUGGGGACAGGGUGCACAGCAGGGCGGGGUAGGACCCCAACCCCU,1.16
UGGGAGGUGGAUUUUGUUUAUUUUUUUAGCUCAUUUCCAGGGGUGGGAAUUUUUUUUUAAUAUGUGUCAUGAAUAAACUUGUUUUUGAAA,0.239
ACCAUGCAGGUGGGCAUCUUUGGGAAGUGGGGCAAGGGGGGGAUAGGGAGGGCGGUAACACUUUGGGAACAGGUGGUCCCAGGUCGUUUC,0.866
